Assay results from different studies.
Protocols differ between the studies behind these lines.

Compound | system | setting | bioavailability
NC(=O)c1ccc(C(=O)NOCc2ccc(Sc3cccc(Cl)c3)c(C(F)(F)F)c2)cc1 | male CD-1 mouse, plasma | intraperitoneal, 30 mg/kg | 55.8%
N#Cc1ccc(-c2cc(=O)c3ccc4[nH]c(C(F)(F)F)nc4c3o2)cc1 | CD-1 mouse, plasma | oral, 5 mg/kg | ~136%
COC1C=COC2(C)Oc3c(C)c(O)c4c(c3C2=O)C2=NC3(CCN(CC(C)C)CC3)NC2=C(NC(=O)C(C)=CC=CC(C)C(O)C(C)C(O)C(C)C(OC(=O)Nc2cscn2)C1C)C4=O (stereo not drawn) | female CD-1 mouse, plasma | oral, 10 mg/kg | 52.7%
CCS(=O)(=O)c1ccccc1C(=O)N1CCN(c2nc3ccc(F)cc3s2)C[C@@H]1C | mouse, plasma | oral, 3 mg/kg | 72%
O=C(O)c1ccc(/C=C2\SC(=S)N(Cc3cccc(C(F)(F)F)c3)C2=O)cc1 | C57BL/6 mouse, blood | oral, 10 mg/kg | 72%
O=C(Cc1ccc(-c2ccc(OCCN3CCOCC3)cc2)cn1)NCc1ccc(F)cc1 | CD-1 mouse, plasma | oral, 10 mg/kg | 116%
C[C@H]1CN(C(=O)c2cn(-c3ccnc(N)n3)c3cc(C#CC4(O)CCCCC4)ccc23)CCN1 | CD-1 mouse, plasma | oral, 10 mg/kg | 6.26%
C=C(C)C(=O)Nc1ccc(-c2c(-c3ccc(Oc4nccc(C)n4)cc3)c3c(N)ncnc3n2C)cc1 | nude mouse, plasma | oral | 74%
COC(=O)c1ccc2c(c1)NC(=O)/C2=C(\Nc1ccc2c(c1)CCN2C(=O)CN1CCOCC1)c1ccccc1 | CD-1 mouse, plasma | oral, 50 mg/kg | 51%
COCc1nc(C(F)(F)F)[nH]c1-c1cc(C(=O)N2CC(c3ccc(C#N)cc3)C2)c(C)cc1C | mouse, plasma | oral, 10 mg/kg | 125%
C=CCC1C(=O)C=C(OC)C2(OC)C(C)C(c3ccc4c(c3)OCO4)OC12 (single isomer, unassigned; (-)) | male C57BL/6 mouse, blood | oral, 10 mg/kg | 10.9%
CCC(=O)N(C)c1ccc(Cl)c(Cl)c1 | female C57BL/6 mouse, plasma | subcutaneous, 2 mg/kg | 82.6%
N#Cc1cnc2cc(OCC3CCNCC3)c(F)cc2c1Nc1cc(F)c(OCc2cccc(Cl)n2)cc1Cl | female CD-1 mouse, plasma | oral, 20 mg/kg | 35%
COC1C=COC2(C)Oc3c(C)c(O)c4c(c3C2=O)C2=NC3(CCN(CC(C)C)CC3)NC2=C(NC(=O)C(C)=CC=CC(C)C(O)C(C)C(O)C(C)C(OC(=O)c2cccnc2)C1C)C4=O (stereo not drawn) | female CD-1 mouse, plasma | oral, 10 mg/kg | 78.7%
CCc1nc(N)nc(N)c1C#C[C@H](C)c1cc(-c2ccncc2)ccc1OC | mouse, plasma | oral, 16 mg/kg, single dose | 8.4%
CCOC(=O)c1nc2cc(Cl)c(Cl)cc2nc1N1CCN(C(=O)Nc2ccc(N3CCNCC3)cc2)CC1 | male mouse, plasma | oral, 10 mg/kg | 11.2%
COC1C=COC2(C)Oc3c(C)c(O)c4c(c3C2=O)C2=NC3(CCN(CC(C)C)CC3)NC2=C(NC(=O)C(C)=CC=CC(C)C(O)C(C)C(O)C(C)C(OC(=O)Nc2cccnn2)C1C)C4=O (stereo not drawn) | female CD-1 mouse, plasma | oral, 10 mg/kg | 56.2%
C=CC(=O)Nc1cccc(Cn2ncc3cnc(Nc4cnn(CCOC)c4)nc32)c1 | male BALB/c mouse, plasma | oral, 30 mg/kg | 24.7%

Repeated from above:
Compound | system | setting | bioavailability
NC(=O)c1ccc(C(=O)NOCc2ccc(Sc3cccc(Cl)c3)c(C(F)(F)F)c2)cc1 | male CD-1 mouse, plasma | intraperitoneal, 30 mg/kg | 55.8%
N#Cc1ccc(-c2cc(=O)c3ccc4[nH]c(C(F)(F)F)nc4c3o2)cc1 | CD-1 mouse, plasma | oral, 5 mg/kg | ~136%
